Published values of several laboratories.
Lines come from different studies, so protocols differ. Values joined by “and” are separate records of one study, mostly repeats; a detail may differ. Numbers after ± are the reported error.

[2H]C1([2H])CC[C@@H](C[C@@H](C#N)NC(=O)[C@@H]2[C@@H]3[C@H](CN2C(=O)[C@@H](NC(=O)C(F)(F)F)C(C)(C)C)C3(C)C)C(=O)N1  half-life (human liver microsomes; microsomes 0.5 mg/mL): 0.592 h
COc1cc(-c2nc3ccc(C(=O)NCCCN4CCN(c5cccc(C)c5C)CC4)cc3n2C2CCC2)cc(OC)c1OC  half-life (human liver microsomes): < 0.5 h
CC(C)(C)c1nc(-c2ccc(NC(=O)c3cccs3)cc2Cl)no1  half-life (plasma stability; mouse plasma; 5 µM, 37 °C): 1.3 ± 0.268 h
CN[C@@H]1[C@H](O)[C@H](NC)[C@H]2O[C@]3(O)[C@H](O[C@@H]2[C@H]1O)O[C@H](C)C[C@@]3(O)CNCc1ccc(OC(F)(F)F)cc1  half-life (rat liver microsomes): 28.8 h
Cn1cc(C(N)=O)c(NC2C3CC4CC2CC(O)(C4)C3)c2ccnc1-2 (stereo not drawn)  half-life (Japanese adults, normal hepatic function, plasma; oral, 150 mg single dose): 12.2 h
Nc1nc2c(ncn2COCCOC(=O)[C@@H](N)CS)c(=O)[nH]1  half-life (DPBS; pH 6.0, 34 °C, chemical hydrolysis): 6.7 ± 0.6 h
Cc1ccc(C(C)C)cc1.[Cl][Au].[Cl][Ru][Cl].c1ccc(P(CP(c2ccccc2)c2ccccc2)c2ccccc2)cc1  half-life (NMR; DMSO-d6): ≥ 48 h
CCC(CC)O[C@@H]1C=C(C(=O)OC(OC(=O)[C@@H](N)C(C)C)C(C)C)C[C@H](NC(=N)N)[C@H]1NC(C)=O (single isomer, unassigned)  half-life (acetate buffer; pH 4.5, 37 °C): stable
CC[C@H](C)[C@H](NC(=O)CNC(=O)CNC(=O)c1ccc2c(c1)C(=O)OC21c2ccc(O)cc2Oc2cc(O)ccc21)C(=O)N[C@@H](Cc1ccc(O)cc1)C(=O)N(C)[C@@H](C)C(=O)N[C@@H](C)C(=O)N1CCC[C@H]1C(=O)N(C)[C@@H](Cc1ccccc1)C(=O)N[C@@H](CCCCN)C(=O)N[C@@H](CCCCN)C(=O)N[C@@H](CCCCN)C(=O)N[C@@H](C)C(N)=O  half-life (CE-LIF; Baf/BCR-ABL cytosolic lysate; 1 µM, pH 7.4, 37 °C): 0.0267 h
[2H]C1([2H])CC[C@@H](C[C@@H](C#N)NC(=O)[C@@H]2[C@@H]3[C@H](CN2C(=O)[C@@H](NC(=O)C(F)F)C(C)(C)C)C3(C)C)C(=O)N1  half-life (mouse liver microsomes; microsomes 0.5 mg/mL): 0.362 h
C#CCOCCOCCOCCOCCn1cc(C(ONC(=O)/C=C/C(C)=C/C2(C)Oc3cc(N(C)C)ccc3C2=O)(c2ccccc2)c2ccccc2)nn1 (stereo not drawn)  half-life (HPLC; aqueous buffer; pH 7.3): stable
Nc1ncnc2c1ncn2C1C=CC(CO)O1 (stereo not drawn)  half-life (glycosidic bond acid hydrolysis, HPLC; aqueous buffer; pH 2): ~0.333 h
CCOC(=O)CCC(=O)Oc1ccc(/C=C/C(=O)/C=C(O)/C=C/c2ccc(OC(=O)CCC(=O)OCC)c(OC)c2)cc1OC  half-life (beagle dog plasma; 1.5 µM, 37 °C): 0.13 ± 0.017 h
Nc1nc2c(ncn2COCCOC(=O)CCC(=O)OC[C@H](N)C(=O)O)c(=O)[nH]1  half-life (DPBS; pH 6.0, 34 °C, chemical hydrolysis): 1160 ± 369 h
CC1(C)C(=CC=C(C=CC2=[N+](CCC[N+](C)(C)C)c3ccc(S(=O)(=O)[O-])cc3C2(C)C)Oc2ccc(CCC(=O)[O-])cc2)N(CCC[N+](C)(C)C)c2ccc(S(=O)(=O)[O-])cc21  half-life (pig; iv, dose not given): 0.762 h and ~0.75 h
CC[C@H](C)[C@H](NC(=O)CNC(=O)CNC(=O)c1ccc2c(c1)C(=O)OC21c2ccc(O)cc2Oc2cc(O)ccc21)C(=O)N[C@@H](Cc1ccc(O)cc1)C(=O)N[C@@H](C)C(=O)N(C)CC(=O)N1CCC[C@H]1C(=O)N(C)[C@@H](Cc1ccccc1)C(=O)N[C@@H](CCCCN)C(=O)N[C@@H](CCCCN)C(=O)N[C@@H](CCCCN)C(N)=O  half-life (CE-LIF; Baf/BCR-ABL cell cytosolic lysate; 1 µM, pH 7.4, 37 °C): 0.535 h
O=C(CS(=O)(=O)Cc1ccco1)C12CC3CC(CC(C3)C1)C2  half-life (metabolic stability; human liver microsomes; 37 °C, with: NADPH): 4.28 h
Cc1cc(C)cc(OCC(N)c2ccccc2)c1 (stereo not drawn)  half-life (chemical stability, HPLC; pH 7.4, 37 °C): > 720 h
O=[N][Fe]1([N]=O)[S](CCO)[Fe]([N]=O)([N]=O)[S]1CCO  half-life (degradation; simulated gastric fluid; pH 1.2, 37 °C): 0.4 ± 0.1 h
COc1cc(C)c(Cc2ccc(O)cc2)cc1[C@@H]1S[C@H](CO)[C@@H](O)[C@H](O)[C@H]1O  half-life (Japanese T2DM patients, plasma; 5 mg luseogliflozin, day 7, once daily): 19.3 ± 3.63 h
CCC(CC)[C@H](NC(C)=O)[C@@H]1[C@H](O)[C@@H](C(=O)N[C@H](C(=O)O)[C@@H](C)CC)C[C@H]1NC(=N)N  half-life (phosphate buffer; pH 4.5, 37 °C, chemical stability): 37.5 ± 1.2 h
O=C(Nc1ccc(-c2noc(C3CC3)n2)c(Cl)c1)c1cccs1  half-life (plasma stability; human plasma; 5 µM, 37 °C): > 2 h
CC(C)C[C@H](NC(=O)[C@H](CO)NC(=O)[C@H](CO)NC(=O)[C@H](CC(C)C)NC(=O)[C@@H](NC(=O)[C@@H]1CCCN1C(=O)[C@H](Cc1c[nH]c2ccccc12)NC(=O)[C@H](Cc1ccc(O)cc1)NC(=O)[C@@H]1CCCN1C(=O)[C@H](CC(C)C)NC(=O)[C@H](Cc1ccc(O)cc1)NC(=O)[C@@H](N)CCCCN)C(C)C)C(=O)O  half-life (ELISA; PC-3 conditioned medium; 3000 µM, 37 °C, 10% FBS): ~7 h
CCC(=O)N[C@@H](C)C(=O)OCC(=O)N[C@@H](C)C(=O)O  half-life (water; pH 2, 50 °C): 175 h
CC(C)C[C@H](NC(=O)[C@H](CO)NC(=O)[C@H](CO)NC(=O)[C@H](CC(C)C)NC(=O)[C@@H](NC(=O)[C@@H]1CCCN1C(=O)[C@H](Cc1c[nH]c2ccccc12)NC(=O)[C@H](Cc1ccc(O)cc1)NC(=O)[C@@H]1CCCN1C(=O)[C@H](CC(C)C)NC(=O)[C@H](Cc1ccc(O)cc1)NC(=O)[C@@H](N)CCCCN)C(C)C)C(=O)O  half-life (plasma stability; rat plasma): ~0.167 h
CCN(CC)CC#CCNc1ccnc2cc(Cl)ccc12  half-life (plasma; 2 µM, pH 7.4, 37 °C): > 1 h
CC(=O)NC1C(N=C(N)N)C=C(C(=O)OC(C)OC(=O)C(N)C(C)C)OC1C(O)C(O)CO (mixture of isomers)  half-life (acetate buffer; pH 4, 37 °C, chemical hydrolysis): > 4 h
CC(C)C[C@H](NC(=O)[C@H](CCCNC(=N)N)NC(=O)[C@H](C)NC(=O)[C@H](CC(C)C)NC(=O)[C@@H](N)CCCCN)C(=O)N[C@@H](CC(C)C)C(=O)N[C@H](C(N)=O)[C@@H](C)O  half-life (human serum; 0.2 mg/mL, 37 °C): ~5 h
CN1CCN(c2cc(-c3ccccc3CO)c(N(C)C(=O)C(C)(C)c3cc(C(F)(F)F)cc(C(F)(F)F)c3)cn2)CC1  half-life (healthy volunteers, plasma; oral, dose not given): 48.8 to 67.8 h
Cc1nc(-c2ccc(NC(=O)c3cccs3)cc2Cl)no1  half-life (plasma stability; mouse plasma; 5 µM, 37 °C): 1.3 h and 1.72 h
